Measured values pooled from the literature.
Protocols differ between the studies behind these lines. Values joined by “and” are separate records of one study, mostly repeats; a detail may differ. ± gives the spread as reported.

SMILES	target or system	assay	test system	setting	how to read	quantity	value
C/C(=N\OCCCN1CCCCC1)c1ccc(C(F)(F)F)cc1			rhesus monkey	dose not given, after dosing		PR interval	60 ms and 68 ms
Cc1cc(-c2ccc3ccccc3c2)nnc1NCCN1CCN(C)CC1		metabolic stability	rat, liver microsomes	1 h		compound remaining	62.7%
CC(C)(CCCC/C=C/CCCCCC(C)(C)C(=O)O)C(=O)O			ICR mice, both sexes	oral, dose not given, 10 h		plasma concentration	3800 ng/mL
O=C1NC2(CC2)COc2ncc(F)cc2[C@H]2COCCN2c2ccn3ncc1c3n2			Sprague-Dawley rat, male, brain	oral, 5 mg/kg/day, 4 weeks, end of treatment		organ-to-body weight ratio	0.505 ± 0.033%
CCn1ccc(-c2cc([C@@H](C)NC(=O)c3cc(OC[C@@H]4CCCN4C)ccc3C)c3ccccc3n2)n1	Vero E6			250 µM		viability	3.82% and 3.1% and 1.67%
CC[C@H](C)[C@H](NC(=O)[C@H](CCCCN)NC(=O)CNC(=O)[C@H](CC(C)C)NC(=O)[C@H](Cc1ccccc1)NC(=O)[C@H](CCCCN)NC(=O)[C@H](CO)NC(=O)[C@H](Cc1ccccc1)NC(=O)[C@H](Cc1c[nH]c2ccccc12)NC(=O)[C@H](CCC(N)=O)NC(=O)[C@@H](NC(=O)[C@H](Cc1ccccc1)NC(=O)CCCCCNC(=O)CN1CCN(CC(=O)O)CCN(CC(=O)O)CCN(CC(=O)O)CC1)C(C)C)C(=O)N[C@@H](CCC(=O)O)C(=O)N1CCC[C@H]1C(=O)N[C@@H](CC(=O)O)C(=O)N[C@H](C(=O)N[C@@H](CO)C(=O)N[C@@H](CCC(N)=O)C(=O)N[C@H](C(=O)N[C@@H](CCC(N)=O)C(=O)N[C@@H](CC(=O)O)C(=O)N1CCC[C@H]1C(=O)N[C@@H](CC(N)=O)C(=O)N[C@@H](CC(=O)O)C(=O)N[C@@H](CCC(N)=O)C(=O)N[C@@H](Cc1ccc(O)cc1)C(=O)N[C@@H](CCC(=O)O)C(=O)N1CCC[C@H]1C(=O)N[C@@H](Cc1ccccc1)C(=O)O)C(C)C)C(C)C [copper-64 labelled]			C57BL/6 mice, muscle	with: LPS 0.1 mg/kg intratracheal		tissue uptake	0.26 ± 0.02 %ID/g
CCn1ccc(-c2cc([C@@H](C)NC(=O)c3cc(N4CC5CCC(C4)N5C)ccc3C)c3ccccc3n2)n1	Vero E6			15.62 µM		viability	96% and 55.8% and 87.5%
CC(C)[C@@H]1NC(=O)CNC(=O)[C@H](CC(N)=O)NC(=O)[C@H](CCCNC(=N)N)NC(=O)[C@H](Cc2ccc(O)cc2)NC(=O)[C@H](C(C)C)NC(=O)[C@@H](NC(=O)[C@@H](NC(=O)[C@H](CC(N)=O)NC(=O)[C@H](Cc2c[nH]c3ccccc23)NC(=O)[C@H](C)NC(=O)[C@H](Cc2ccccc2)NC(=O)CNC(=O)[C@H](CCCCN)NC(=O)[C@H](Cc2ccccc2)NC(=O)[C@H](Cc2ccccc2)NC(=O)[C@H](CCCCN)NC(=O)OCC2c3ccccc3-c3ccccc32)C(C)C)CSSC[C@@H](C(=O)N[C@@H](Cc2c[nH]cn2)C(=O)N[C@@H](CCCNC(=N)N)C(=O)N[C@@H](CCCNC(=N)N)C(=O)N[C@@H](C)C(=O)N[C@@H](CC(N)=O)C(N)=O)NC(=O)[C@H](C(C)C)NC(=O)[C@H](CCCNC(=N)N)NC1=O			ICR mice, blood	intraperitoneal, 10 mg/kg, day 5		lymphocytes	72.9 ± 2.4%
N#[11C]c1ccc(-c2csc(NN=C3CCCC3)n2)cc1		dynamic PET/CT	C57BL/6 mouse, liver	intravenous, dose not given, 5 min		peak radioactivity uptake	2.3 SUV
NC1CCN(C(=O)Oc2ccc(C3CCCC4(C3)OOC3(O4)C4CC5CC(C4)CC3C5)cc2)CC1 (racemic)			male mouse, plasma	oral, 50 mg/kg, single dose		Tmax	2 h
CCN(CCCCOc1ccc(CCC(=O)N2CCC(Cc3ccccc3)CC2)cc1OC)Cc1ccccc1			Sprague-Dawley rats, both sexes, faeces	oral gavage, 25 mg/kg, 0 to 48 h	relative to: dose	excretion rate	1.4 ± 0.0166%
CN1Cc2cc(Cl)ccc2-n2c(nnc2C2CCN(c3cccc([18F])n3)CC2)C1			C57BL/6 mouse male, testis	intravenous, 3.7 MBq, 30 min		tissue uptake	1.37 ± 0.35 %ID/g
CC[C@H](C)[C@H](NC(=O)CN)C(=O)N[C@@H](CCCNC(=N)N)C(=O)N[C@@H](CCCCN)C(=O)N[C@@H](Cc1c[nH]c2ccccc12)C(=O)N[C@@H](Cc1ccccc1)C(=O)N[C@@H](CCCCN)C(=O)N[C@@H](CCCCN)C(=O)N[C@@H](C)C(=O)N[C@@H](C)C(=O)N[C@@H](Cc1c[nH]cn1)C(=O)N[C@H](C(=O)NCC(=O)N[C@@H](CCCCN)C(=O)N[C@@H](CCC(=O)O)C(=O)N[C@H](C(=O)NCC(=O)N[C@@H](CCCCN)C(=O)N[C@H](C(=O)N[C@@H](C)C(=O)N[C@@H](CC(C)C)C(=O)N[C@@H](CC(N)=O)C(=O)N[C@@H](C)C(=O)N[C@@H](CS)C(=O)N[C@@H](CC(C)C)C(=O)O)C(C)C)C(C)C)C(C)C			zebrafish embryos 28 hpf, E3 medium	1 h		acute toxic concentration	25 µM
CSCC[C@H](N)C(=O)N[C@@H](C)C(=O)N[C@@H](Cc1c[nH]c2ccccc12)C(=O)N[C@@H](Cc1c[nH]cn1)C(=O)N[C@@H](CC(=O)O)C(=O)N[C@@H](CC(=O)O)C(=O)N[C@@H](CCC(=O)O)C(=O)N[C@@H](CCC(=O)O)C(=O)N[C@@H](Cc1ccccc1)C(=O)N[C@@H](C)C(=O)N[C@@H](CCCNC(=N)N)C(=O)N[C@@H](CCCNC(=N)N)C(=O)N[C@@H](CCCNC(=N)N)C(=O)N[C@@H](CCCNC(=N)N)C(=O)NCCCCCC(=O)NCCCCC(NC(=O)CCCCCNC(=O)[C@H](CCCNC(=N)N)NC(=O)[C@H](CCCNC(=N)N)NC(=O)[C@H](CCCNC(=N)N)NC(=O)[C@H](CCCNC(=N)N)NC(=O)[C@H](C)NC(=O)[C@H](Cc1ccccc1)NC(=O)[C@H](CCC(=O)O)NC(=O)[C@H](CCC(=O)O)NC(=O)[C@H](CC(=O)O)NC(=O)[C@H](CC(=O)O)NC(=O)[C@H](Cc1c[nH]cn1)NC(=O)[C@H](Cc1c[nH]c2ccccc12)NC(=O)[C@H](C)NC(=O)[C@@H](N)CCSC)C(=O)NCCCCC(NC(=O)C(CCCCNC(=O)CCCCCNC(=O)[C@H](CCCNC(=N)N)NC(=O)[C@H](CCCNC(=N)N)NC(=O)[C@H](CCCNC(=N)N)NC(=O)[C@H](CCCNC(=N)N)NC(=O)[C@H](C)NC(=O)[C@H](Cc1ccccc1)NC(=O)[C@H](CCC(=O)O)NC(=O)[C@H](CCC(=O)O)NC(=O)[C@H](CC(=O)O)NC(=O)[C@H](CC(=O)O)NC(=O)[C@H](Cc1c[nH]cn1)NC(=O)[C@H](Cc1c[nH]c2ccccc12)NC(=O)[C@H](C)NC(=O)[C@@H](N)CCSC)NC(=O)CCCCCNC(=O)[C@H](CCCNC(=N)N)NC(=O)[C@H](CCCNC(=N)N)NC(=O)[C@H](CCCNC(=N)N)NC(=O)[C@H](CCCNC(=N)N)NC(=O)[C@H](C)NC(=O)[C@H](Cc1ccccc1)NC(=O)[C@H](CCC(=O)O)NC(=O)[C@H](CCC(=O)O)NC(=O)[C@H](CC(=O)O)NC(=O)[C@H](CC(=O)O)NC(=O)[C@H](Cc1c[nH]cn1)NC(=O)[C@H](Cc1c[nH]c2ccccc12)NC(=O)[C@H](C)NC(=O)[C@@H](N)CCSC)C(N)=O (stereo partly drawn)			C57BL/6 mouse female, spine	dose not given, 6 h	relative to: total	mean tissue distribution	5.87%
Cc1ccc(OCC(=O)N(Cc2cccs2)c2ccn[nH]2)cc1		micronucleus	CD-1 mouse Crl:CD-1(ICR), male, bone marrow	oral, 1000 mg/kg/day, 3 days		PCE to total erythrocyte ratio	0.63 ± 0.08

For quick reference, copied from above:
SMILES	target or system	assay	test system	setting	how to read	quantity	value
C/C(=N\OCCCN1CCCCC1)c1ccc(C(F)(F)F)cc1			rhesus monkey	dose not given, after dosing		PR interval	60 ms and 68 ms
Cc1cc(-c2ccc3ccccc3c2)nnc1NCCN1CCN(C)CC1		metabolic stability	rat, liver microsomes	1 h		compound remaining	62.7%
